{"data": "Results from different studies", "note": "Every numbered part comes from another study and shows a few of its results, in no order. Positions count from the first letter of the parent shown."}
{"data": "Block 1", "target": "ABI1, truncated, D143A, DHFR fusion (Arabidopsis thaliana)", "method": "DHFR PCA, deep sequencing", "sample": "yeast", "setting": "methotrexate growth selection, single substitutions", "added": "(+)-ABA 200 µM", "baseline": "wild-type fitted maximum", "reading": "higher = stronger binding", "starting sequence": "PYL1, truncated, DHFR fusion (Arabidopsis thaliana); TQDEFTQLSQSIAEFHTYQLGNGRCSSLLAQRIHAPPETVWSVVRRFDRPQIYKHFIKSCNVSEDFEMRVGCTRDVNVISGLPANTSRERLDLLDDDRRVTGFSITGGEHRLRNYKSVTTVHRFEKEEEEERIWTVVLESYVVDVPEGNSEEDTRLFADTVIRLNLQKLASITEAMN"}
{"Variant": "G108F", "relative binding score [%]": 13.8}
{"Variant": "E151Y", "relative binding score [%]": 88.5}
{"Variant": "L28G", "relative binding score [%]": 35.8}
{"Variant": "F5M", "relative binding score [%]": 97.2}
{"Variant": "V62H", "relative binding score [%]": 72.1}
{"Variant": "L156Y", "relative binding score [%]": 90.1}
{"Variant": "V100M", "relative binding score [%]": 97.9}
{"Variant": "R99A", "relative binding score [%]": 70.7}
{"Variant": "T135I", "relative binding score [%]": 2.23}
{"Variant": "D144R", "relative binding score [%]": 57.2}
{"Variant": "R88A", "relative binding score [%]": 93.5}
{"Variant": "E130S", "relative binding score [%]": 106}
{"Variant": "D75N", "relative binding score [%]": 106}
{"Variant": "E67L", "relative binding score [%]": 93.3}
{"Variant": "T73P", "relative binding score [%]": 48.3}
{"data": "Block 2", "target": "Histone acetyltransferase KAT6A, winged helix 2, GST fusion (KAT6A, Homo sapiens, UniProt Q92794, residues 85-181)", "method": "protein binding microarray", "molecule type": "double-stranded DNA, one strand shown", "sample": "in vitro", "concentration": "not given", "setting": "8-mer, flanks averaged, mean of 2 arrays, mostly near background", "baseline": "not given", "reading": "higher = stronger binding", "Residues (chain)": "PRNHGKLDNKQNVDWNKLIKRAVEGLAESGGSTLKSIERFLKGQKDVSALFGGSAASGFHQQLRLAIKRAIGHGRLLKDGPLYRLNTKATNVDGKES"}
{"Sequence": "AGATACAA", "E-score": 0.0376}
{"Sequence": "AAGCCGAT", "E-score": 0.143}
{"Sequence": "GTAATATA", "E-score": 0.158}
{"Sequence": "AACTCCGT", "E-score": 0.0378}
{"Sequence": "CTAGCACC", "E-score": 0.166}
{"Sequence": "GCGAGTAA", "E-score": 0.171}
{"Sequence": "GCTGGTGA", "E-score": 0.204}
{"Sequence": "TACGACGA", "E-score": -0.1}
{"Sequence": "AGAATAAT", "E-score": 0.0273}
{"Sequence": "CTATACAA", "E-score": -0.013}
{"Sequence": "ACCGTTAT", "E-score": 0.00464}
{"Sequence": "GTATTCCA", "E-score": -0.0607}
{"Sequence": "AGAAGCAA", "E-score": -0.02}
{"Sequence": "GTACCCAC", "E-score": 0.00889}
{"Sequence": "CGGGTATA", "E-score": 0.00615}
{"Sequence": "CAGACAAA", "E-score": 0.121}
{"Sequence": "CTCTGAGC", "E-score": -0.0108}
{"Sequence": "TGATAACA", "E-score": -0.022}
{"Sequence": "CGAACCCC", "E-score": 0.116}
{"Sequence": "CACTGGGA", "E-score": 0.0249}
{"Sequence": "ACATGCCC", "E-score": 0.00744}
{"Sequence": "CACTTGAA", "E-score": 0.0261}
{"Sequence": "AACAGCGA", "E-score": -0.0386}
{"Sequence": "CAAAGAAG", "E-score": 0.0474}
{"Sequence": "GGAATAGA", "E-score": -0.0301}
{"data": "Block 3", "target": "Sal-like protein 4, full length isoform A (SALL4, Homo sapiens, UniProt Q9UJQ4, residues 1-1053)", "method": "universal PBM", "molecule type": "double-stranded DNA, one strand shown", "sample": "in vitro", "concentration": "600 nM", "setting": "8-mer, flanks averaged, mean of replicates", "reading": "higher = stronger binding", "chain of UniProt Q9UJQ4 (whole entry, looked up)": "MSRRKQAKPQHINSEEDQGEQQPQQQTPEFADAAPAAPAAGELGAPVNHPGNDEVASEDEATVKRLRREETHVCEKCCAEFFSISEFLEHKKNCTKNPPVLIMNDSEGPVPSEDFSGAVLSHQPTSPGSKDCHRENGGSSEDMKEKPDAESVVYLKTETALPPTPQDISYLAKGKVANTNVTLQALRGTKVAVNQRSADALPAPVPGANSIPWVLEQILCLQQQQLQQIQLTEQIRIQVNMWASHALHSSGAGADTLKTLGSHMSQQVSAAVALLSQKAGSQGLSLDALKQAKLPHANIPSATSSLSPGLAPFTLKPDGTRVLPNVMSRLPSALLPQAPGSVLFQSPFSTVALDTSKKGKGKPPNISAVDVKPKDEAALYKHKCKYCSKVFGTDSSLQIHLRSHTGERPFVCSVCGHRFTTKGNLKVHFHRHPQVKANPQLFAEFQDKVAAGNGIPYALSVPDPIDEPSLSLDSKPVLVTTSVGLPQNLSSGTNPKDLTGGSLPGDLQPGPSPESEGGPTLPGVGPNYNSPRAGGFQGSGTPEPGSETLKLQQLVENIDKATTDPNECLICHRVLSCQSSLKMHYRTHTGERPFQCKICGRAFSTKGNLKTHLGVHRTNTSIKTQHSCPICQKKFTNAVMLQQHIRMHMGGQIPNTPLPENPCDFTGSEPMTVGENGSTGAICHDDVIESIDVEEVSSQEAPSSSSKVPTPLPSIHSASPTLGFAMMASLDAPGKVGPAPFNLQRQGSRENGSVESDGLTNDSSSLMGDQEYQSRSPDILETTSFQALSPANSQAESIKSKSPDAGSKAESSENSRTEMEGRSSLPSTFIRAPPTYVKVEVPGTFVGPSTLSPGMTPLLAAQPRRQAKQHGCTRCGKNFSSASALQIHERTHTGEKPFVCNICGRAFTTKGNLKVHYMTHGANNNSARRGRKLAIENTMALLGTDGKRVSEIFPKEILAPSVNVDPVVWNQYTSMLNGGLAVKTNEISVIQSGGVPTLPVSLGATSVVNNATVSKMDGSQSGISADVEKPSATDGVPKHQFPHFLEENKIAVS"}
{"Sequence": "AACATCGG", "E-score": -0.0887}
{"Sequence": "CAGAGCTG", "E-score": -0.236}
{"Sequence": "CTAAGTAG", "E-score": 0.0245}
{"Sequence": "CCTCGTTA", "E-score": 0.0776}
{"Sequence": "GCGTCTTA", "E-score": 0.0291}
{"Sequence": "AGTGCCCG", "E-score": -0.212}
{"Sequence": "AGGATACG", "E-score": -0.0877}
{"Sequence": "GTAGGTGA", "E-score": -0.067}
{"Sequence": "AACTTAAG", "E-score": 0.168}
{"Sequence": "AAGCTGAA", "E-score": -0.0264}
{"Sequence": "AGTCTGCC", "E-score": -0.165}
{"Sequence": "AGGTGGTG", "E-score": -0.103}
{"Sequence": "ATAACACG", "E-score": 0.144}
{"Sequence": "GACCGAGC", "E-score": -0.29}
{"Sequence": "ACGCTTGA", "E-score": 0.0448}
{"Sequence": "CCAGTCCG", "E-score": -0.237}
{"Sequence": "ACGTCCTG", "E-score": -0.239}
{"data": "Block 4", "target": "Prothrombin, mature alpha-thrombin (F2, Homo sapiens, UniProt P00734)", "method": "aptamer microarray, sandwich", "molecule type": "DNA with 2'F-ANA", "sample": "in vitro", "concentration": "200 nM", "setting": "whole 15-mer aptamer, many near background", "added": "Cy3 exosite-II aptamer, 400 nM", "reading": "higher = stronger binding", "sequence": "GGTTGGTGTGGTTGG"}
{"Modification": "2'F-ANA at 2 4 5 8 9 14", "mean fluorescence intensity [a.u.]": 42.7}
{"Modification": "2'F-ANA at 7 8 10 12 15", "mean fluorescence intensity [a.u.]": 228}
{"Modification": "2'F-ANA at 2 3 4 6 8 12 13 14 15", "mean fluorescence intensity [a.u.]": 252}
{"Modification": "2'F-ANA at 5 7 8 9 10 11 15", "mean fluorescence intensity [a.u.]": 48.8}
{"Modification": "2'F-ANA at 6 8 10 12 13 14", "mean fluorescence intensity [a.u.]": 145}
{"Modification": "2'F-ANA at 1 2 3 4 6 7 8 9 11 14", "mean fluorescence intensity [a.u.]": 74.1}
{"Modification": "2'F-ANA at 2 5 8 9 10 11 12 13 15", "mean fluorescence intensity [a.u.]": 54.8}
{"Modification": "2'F-ANA at 1 3 4 8 9 11 12 13 15", "mean fluorescence intensity [a.u.]": 288}
{"Modification": "2'F-ANA at 2 7 10 12 13", "mean fluorescence intensity [a.u.]": 168}
{"Modification": "2'F-ANA at 1 4 8 9", "mean fluorescence intensity [a.u.]": 155}
{"Modification": "2'F-ANA at 3 5 6 7 8 10 11 13", "mean fluorescence intensity [a.u.]": 56.2}
{"Modification": "2'F-ANA at 1 2 3 4 6 7 9 10 13", "mean fluorescence intensity [a.u.]": 52.1}
{"Modification": "2'F-ANA at 1 2 3 5 6 7 9 10 11 13", "mean fluorescence intensity [a.u.]": 45.8}
{"Modification": "2'F-ANA at 1 5 6 8 9 12 13", "mean fluorescence intensity [a.u.]": 79.2}
{"Modification": "2'F-ANA at 3 5 6 7 10 11 12", "mean fluorescence intensity [a.u.]": 182}
{"Modification": "2'F-ANA at 2 3 7 9 12 14 15", "mean fluorescence intensity [a.u.]": 433}
{"Modification": "2'F-ANA at 1 2 3 5 6 7 8 10 13 15", "mean fluorescence intensity [a.u.]": 47.9}
{"Modification": "2'F-ANA at 4 8 12 14", "mean fluorescence intensity [a.u.]": 140}
{"Modification": "2'F-ANA at 1 3 8 10 12 14 15", "mean fluorescence intensity [a.u.]": 57.9}
{"data": "Block 5", "target": "RNA binding protein fox-1 homolog 2, RRM domain, GST-SBP tag (RBFOX2, Homo sapiens, UniProt O43251-10, residues 100-194)", "method": "RNA Bind-n-Seq", "molecule type": "RNA", "sample": "in vitro", "concentration": "365 nM", "setting": "natural RNA segment, single round, ends assumed", "baseline": "no-protein control", "reading": "higher = stronger binding", "shared flanks, not repeated": "GGGAGUUCUACAGUCCGACGAUC … UGGAAUUCUCGGGUGCCAA", "Construct (chain)": "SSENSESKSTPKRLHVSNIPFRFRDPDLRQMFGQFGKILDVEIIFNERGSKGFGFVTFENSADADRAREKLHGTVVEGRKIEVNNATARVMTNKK"}
{"Sequence": "AUCUUUAUAAAUGAUCUUGGGUAAAUUACUGGUGAUUGUGAGGGUUGUUUCCCAAUCAAAGGUUAUUUCUAGAUGGCUAUAUGCUUUGUUGCAAUUUCUGCUUCCACCUA", "RBNS enrichment (R)": 0.823}
{"Sequence": "UCAUUUUGAAACUUAAUGUACUACUUACUGGUACUCUCCCUAUUAAUAUUUGAAGGACCUCAAUGGAAUAAAUUUGAAAAGCUAAAUUAAAAUACAAAAAUUUAAAUCUG", "RBNS enrichment (R)": 0.641}
{"Sequence": "AGAAAUAUUUUUAUAUGCGUUGUGUAAUUUAUAACAAGGGGUUUUCUUUUAGGCUUUGUUAACUGAAUGCUCCUCUCCUCCUCCACUGCAUAGUUAAAGCAUGUGUUCAC", "RBNS enrichment (R)": 4.09}
{"Sequence": "AGUCUGCCGCUAAUUAAUCUUAUUUAUUGCAGCUUAUAAAUUGUGCAAUCUCUAUUUCAUUAUCCUGUAAGGAAUAAAUAAGACAUUCAAUAUUGACCUAACUAACUUGA", "RBNS enrichment (R)": 0.331}
{"Sequence": "AGUUGCUAUGUGUUUCUCAUUGUAAAAGGCUGCCGCUGGGUGGCAGAAGCCAAGAGACCUUAUUAACUAGGCUAUAUUUUUCUUAACUUGAUCUGAAAUCCACAAUUAGA", "RBNS enrichment (R)": 0.377}
{"Sequence": "UCAUUUUUGUAAGAUAGAUUGUAAUAGAUGCUGUUUAUACUAAACAUGUCAUAACUAUCUAUACAGUAUAUAUUAAAAGAAAGCUUGUACUGUAUCUUAUUUGAUGAUAU", "RBNS enrichment (R)": 0.475}
{"Sequence": "UUGAAGCAAUGUGAGAGCUGUUAUUUUGCAUAUAUGUUCUUCAUAAGCUGAACCACCAACAGAGAAAAGCAGGCCUUUGCAGAUAUGAUGGAAUGCAUCCCACCUUGCCA", "RBNS enrichment (R)": 0.573}
{"Sequence": "UCCAUCCUAGACCUGCCCCAGUGCCCAGCAGUCACCCUUCCCCUCUAGCUACAGAGUCCAGGCCACUGGACCAGCCAACAUCUGGGCUGCUGCAGGGAGGCCUGGCCUAU", "RBNS enrichment (R)": 0.593}
{"note": "Repeated from above (block 5):"}
{"Sequence": "AUCUUUAUAAAUGAUCUUGGGUAAAUUACUGGUGAUUGUGAGGGUUGUUUCCCAAUCAAAGGUUAUUUCUAGAUGGCUAUAUGCUUUGUUGCAAUUUCUGCUUCCACCUA", "RBNS enrichment (R)": 0.823}
{"Sequence": "UCAUUUUGAAACUUAAUGUACUACUUACUGGUACUCUCCCUAUUAAUAUUUGAAGGACCUCAAUGGAAUAAAUUUGAAAAGCUAAAUUAAAAUACAAAAAUUUAAAUCUG", "RBNS enrichment (R)": 0.641}
{"Sequence": "AGAAAUAUUUUUAUAUGCGUUGUGUAAUUUAUAACAAGGGGUUUUCUUUUAGGCUUUGUUAACUGAAUGCUCCUCUCCUCCUCCACUGCAUAGUUAAAGCAUGUGUUCAC", "RBNS enrichment (R)": 4.09}
{"Sequence": "AGUCUGCCGCUAAUUAAUCUUAUUUAUUGCAGCUUAUAAAUUGUGCAAUCUCUAUUUCAUUAUCCUGUAAGGAAUAAAUAAGACAUUCAAUAUUGACCUAACUAACUUGA", "RBNS enrichment (R)": 0.331}
{"Sequence": "AGUUGCUAUGUGUUUCUCAUUGUAAAAGGCUGCCGCUGGGUGGCAGAAGCCAAGAGACCUUAUUAACUAGGCUAUAUUUUUCUUAACUUGAUCUGAAAUCCACAAUUAGA", "RBNS enrichment (R)": 0.377}
{"Sequence": "UCAUUUUUGUAAGAUAGAUUGUAAUAGAUGCUGUUUAUACUAAACAUGUCAUAACUAUCUAUACAGUAUAUAUUAAAAGAAAGCUUGUACUGUAUCUUAUUUGAUGAUAU", "RBNS enrichment (R)": 0.475}
{"Sequence": "UUGAAGCAAUGUGAGAGCUGUUAUUUUGCAUAUAUGUUCUUCAUAAGCUGAACCACCAACAGAGAAAAGCAGGCCUUUGCAGAUAUGAUGGAAUGCAUCCCACCUUGCCA", "RBNS enrichment (R)": 0.573}
{"Sequence": "UCCAUCCUAGACCUGCCCCAGUGCCCAGCAGUCACCCUUCCCCUCUAGCUACAGAGUCCAGGCCACUGGACCAGCCAACAUCUGGGCUGCUGCAGGGAGGCCUGGCCUAU", "RBNS enrichment (R)": 0.593}
